Measurements pooled from the literature.
Each numbered part is a random draw from the data of one study; scales do not carry over between parts.

Block 1
Target: Interferon regulatory factor 5, full length, phosphomimetic (IRF5, Homo sapiens, UniProt Q13568-2, residues 1-514, S451D/S453D/S456D/S462D)
Technique: protein-binding microarray
Form: double-stranded DNA, one strand shown
Sample: in vitro
Tested at: 940 nM top
Notes: 60-bp whole probe
Added: salmon DNA 0.4 mg/ml
Reference: random background probes
Reading: higher = stronger binding
Strand | fitted relative affinity
GCCTAGCACTGGCTTTGCCTTTTGCTTTAGTGCTAGGTCTTGATTCGCTTGACGCTGCTG | -0.207 z-score
GCCTAGCACTTAGATATAGGGACTGGATTAGTGCTAGTCTTGATTCGCTTGACGCTGCTG | -0.121 z-score
GCCTAGCACTCAGTTTGCCTCCTTCAGACTGTGCTAGTCTTGATTCGCTTGACGCTGCTG | 0.295 z-score
GCCTAGCACGACGATAGCAGACTGGAGACGTGCTAGGTCTTGATTCGCTTGACGCTGCTG | -0.519 z-score

Block 2
Target: Histone acetyltransferase KAT6A, winged helix 2, GST fusion (KAT6A, Homo sapiens, UniProt Q92794, residues 85-181)
Technique: protein binding microarray
Form: double-stranded DNA, one strand shown
Sample: in vitro
Tested at: not given
Notes: 8-mer, flanks averaged, mean of 2 arrays, mostly near background
Reference: not given
Reading: higher = stronger binding
Construct (chain): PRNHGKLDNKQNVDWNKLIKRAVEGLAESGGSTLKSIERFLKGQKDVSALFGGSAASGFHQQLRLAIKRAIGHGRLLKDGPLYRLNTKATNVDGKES
Strand | E-score
ATGGATTC | 0.00912
CAGCCATA | 0.0533
GAGGAGCA | -0.0101
AAAGCATG | 0.0756

Block 3
Target: Sal-like protein 4, full length isoform B (SALL4, Homo sapiens, UniProt Q9UJQ4-2, residues 1-616)
Technique: universal PBM
Form: double-stranded DNA, one strand shown
Sample: in vitro
Tested at: not given
Notes: 8-mer, flanks averaged, mean of replicates
Reading: higher = stronger binding
Target sequence (chain): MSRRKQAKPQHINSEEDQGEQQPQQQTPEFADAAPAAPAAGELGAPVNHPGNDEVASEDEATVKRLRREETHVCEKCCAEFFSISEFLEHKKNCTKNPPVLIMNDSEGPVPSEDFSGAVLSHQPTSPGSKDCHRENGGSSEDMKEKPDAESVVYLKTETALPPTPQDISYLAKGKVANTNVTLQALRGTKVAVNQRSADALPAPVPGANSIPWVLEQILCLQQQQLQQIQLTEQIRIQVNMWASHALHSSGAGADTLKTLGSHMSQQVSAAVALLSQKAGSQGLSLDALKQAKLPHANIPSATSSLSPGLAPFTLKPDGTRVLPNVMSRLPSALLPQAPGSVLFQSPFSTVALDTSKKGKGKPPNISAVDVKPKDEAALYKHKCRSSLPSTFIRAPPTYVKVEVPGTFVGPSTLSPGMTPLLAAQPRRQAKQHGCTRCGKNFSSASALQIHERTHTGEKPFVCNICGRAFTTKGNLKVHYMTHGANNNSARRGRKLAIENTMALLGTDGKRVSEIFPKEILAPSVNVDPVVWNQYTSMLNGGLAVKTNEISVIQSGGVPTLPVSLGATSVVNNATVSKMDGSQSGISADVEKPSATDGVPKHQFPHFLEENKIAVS
Strand | E-score
AAGCTCCC | -0.303
TCTAGAGA | -0.0145
CTACTCAA | 0.168
TACCCGGA | -0.0284

Mixed results
Molecule | target | test | test system | setting | scale | endpoint | result
PhoQ, residues 284 288 289 292 302 303 TLASMF | PhoP, residues 12 14 15 18 19 DLLYY (Escherichia coli, UniProt P23836) | Sort-seq, measured: YFP reporter | E. coli | PhoQ-PhoP variant library, added: 10 µM Mg2+ | reference: high Mg2+ state, higher = stronger signaling | fold induction | 0.849

Some of these lines once more (block 3):
Strand | E-score
TCTAGAGA | -0.0145
TACCCGGA | -0.0284
